Published values of several laboratories.
Several values in a cell are separate wells, animals, samples, runs or records. Numbers after ± are the reported error.
UniProt P08183, sequence (whole entry, looked up): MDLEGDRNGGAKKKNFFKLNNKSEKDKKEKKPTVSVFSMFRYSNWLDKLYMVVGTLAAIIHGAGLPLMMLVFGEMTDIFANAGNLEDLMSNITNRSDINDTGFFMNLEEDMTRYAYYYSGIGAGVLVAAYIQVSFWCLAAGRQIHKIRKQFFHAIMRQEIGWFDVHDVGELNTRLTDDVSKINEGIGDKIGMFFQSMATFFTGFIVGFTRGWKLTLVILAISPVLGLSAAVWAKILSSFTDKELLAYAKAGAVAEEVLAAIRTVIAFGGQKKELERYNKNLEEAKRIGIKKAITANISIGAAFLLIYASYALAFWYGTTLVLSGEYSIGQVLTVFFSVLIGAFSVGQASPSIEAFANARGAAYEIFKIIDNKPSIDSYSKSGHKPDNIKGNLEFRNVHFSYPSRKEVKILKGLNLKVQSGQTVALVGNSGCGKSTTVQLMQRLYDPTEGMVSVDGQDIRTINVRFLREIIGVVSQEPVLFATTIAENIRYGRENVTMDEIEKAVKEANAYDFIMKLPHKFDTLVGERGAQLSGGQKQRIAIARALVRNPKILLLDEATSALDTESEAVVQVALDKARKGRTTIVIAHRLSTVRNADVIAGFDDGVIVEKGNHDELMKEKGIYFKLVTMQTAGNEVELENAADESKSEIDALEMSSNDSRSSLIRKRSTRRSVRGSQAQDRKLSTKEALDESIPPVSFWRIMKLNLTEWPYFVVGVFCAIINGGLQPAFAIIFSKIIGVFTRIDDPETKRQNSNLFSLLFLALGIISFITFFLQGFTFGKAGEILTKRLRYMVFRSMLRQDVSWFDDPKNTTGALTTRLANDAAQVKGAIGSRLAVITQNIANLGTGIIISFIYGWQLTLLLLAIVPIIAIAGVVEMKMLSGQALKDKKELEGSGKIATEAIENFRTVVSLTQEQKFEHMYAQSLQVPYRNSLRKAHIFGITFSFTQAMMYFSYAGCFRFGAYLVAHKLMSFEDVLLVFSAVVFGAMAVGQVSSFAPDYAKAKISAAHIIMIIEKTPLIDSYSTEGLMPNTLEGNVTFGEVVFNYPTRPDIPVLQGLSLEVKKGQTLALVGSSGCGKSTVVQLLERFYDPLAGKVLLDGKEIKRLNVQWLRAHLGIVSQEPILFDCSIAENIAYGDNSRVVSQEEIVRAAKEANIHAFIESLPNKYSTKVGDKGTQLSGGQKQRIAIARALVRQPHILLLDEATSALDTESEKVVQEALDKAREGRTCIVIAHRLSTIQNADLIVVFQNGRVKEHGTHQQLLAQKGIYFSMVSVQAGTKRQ

Compound	tested on	test	system	conditions	how to read	quantity	value
O=[N+]([O-])c1ccc(N2CCN(CCC(O)c3ccc(F)cc3)CC2)c(C(F)(F)F)c1 (stereo not shown)	Salmonella typhimurium	SOS/umu test	TA1535/pSK1002	0.002 mg/mL, 4 h, with S9, lower range		survival	100%
OCc1ncc2n1-c1ccc(Cl)cc1C(c1ccccc1F)=NC2	CYP3A4	substrate	human, plasma	oral, 2 mg midazolam, day 1, cocktail with binimetinib and encorafenib		AUC(0-t)	173 ng·h/mL
O=c1ccc2ccccc2o1	NHEK	oxygen consumption rate, Seahorse		concentration not given, 6 h		chance response	100%
Fc1ccc(C(OCCCc2c[nH]cn2)c2ccc(F)cc2)cc1	Plasmodium falciparum		3D7			IC50	1.26 µM
Cc1cc(C(=O)NC(C)(C)COc2cccc3c2C(N)=NS(=O)(=O)N3)cc(C)n1	Salmonella typhimurium	Ames test, initial	TA1537	1.50 µg/plate	baseline: solvent control	revertant ratio	0.8
COc1cc2c(Oc3ccc4[nH]c(C)cc4c3F)ccnc2cc1OCC1(N)CC1			paediatric recurrent refractory sarcoma	8 mg		grade 3 Nausea	0%
CC(C)CC(=O)OC[C@H]1O[C@@](C#N)(c2ccc3c(N)ncnn23)[C@H](O)[C@@H]1O	ABCB1 (Homo sapiens, UniProt P08183)	basolateral to apical transport	Caco-2	90 µM, 2 h, added: verapamil 100 µM		recovery	90.8%
CC1(C)[C@H](C=C(Cl)Cl)[C@H]1C(=O)OCc1cccc(Oc2ccccc2)c1	human cytosolic CES1	IVIVE from expressed enzymes	human, 6 months old, expressed human CES1	0.1 µM	baseline: total hepatic CLint in vivo	relative enzyme contribution	30%
CCCC[C@H](NC(C)=O)C(=O)N[C@@H](CO)C(=O)N[C@H](C(=O)N1CCC[C@H]1C(=O)N[C@@H](C)C(=O)N[C@@H](CCCNC(=N)N)C(=O)N[C@@H](CCCNC(=N)N)C(=O)N[C@@H](CCCNC(=N)N)C(=O)N[C@@H](CC(C)C)C(=O)N[C@@H](CCCC)C(=O)N[C@@H](CCCNC(=N)N)C(=O)N[C@@H](CC(=O)O)C(=O)N[C@@H](Cc1ccccc1)C(=O)N[C@@H](CCCCN)C(=O)N[C@@H](CCCNC(=N)N)C(=O)N[C@@H](CC(C)C)C(=O)N[C@@H](CCC(N)=O)C(N)=O)[C@@H](C)O	proteinase K	LC-MS		25 µM, 122.9 min, pH 7.4		remaining peptide	0%
CCC1(C2=NCCN2)Cc2ccccc2O1 (stereo not shown)	Plasmodium falciparum		7G8			IC50	6.31 µM
COc1cccc(-c2n[nH]c(SCc3ccccn3)n2)c1OC	Salmonella typhimurium	Ames test, preincubation	TA1537	0.13 mg/plate, with rat liver S9		revertant colonies per plate	14
COCC/N=c1/scc(-c2cccs2)n1/N=C/c1cc(Br)c(O)c(OC)c1	Gag-Pol polyprotein, integrase (gag-pol, Human immunodeficiency virus 1, UniProt P12497)	3'-processing activity, inhibitor		wild-type integrase		IC50	> 100 µM
Nc1ncnc2c([C@@H]3N[C@H](CO)[C@@H](O)[C@H]3O)c[nH]c12	HeLa			1.6 µM		cell number	5010 and 5620
CC(=O)N1CCC(C(=O)N2CCN3C(=O)c4cc(-c5ccccc5)ccc4NC(=O)C3C2)CC1 (stereo not shown)	Escherichia coli		WP2 uvrA	1.58 µg/plate, without S9		revertants per plate	23.5
CO[C@H]1C[C@@H]2CC[C@@H](C)[C@@](O)(O2)C(=O)C(=O)N2CCCC[C@H]2C(=O)O[C@H]([C@H](C)C[C@@H]2CC[C@@H](OC(=O)NCCOCCOCCOCCOCCOCCOCCOCCOCCC(=O)N3CCc4cc(Cn5nc(-c6ccc7oc(N)nc7c6)c6c(N)ncnc65)ccc4C3)[C@H](OC)C2)C[C@@H](O)[C@H](C)/C=C(\C)[C@@H](O)[C@@H](OC)C(=O)[C@H](C)C[C@H](C)/C=C/C=C/C=C/1C			patients with advanced solid tumours	intravenous, dose not given, any grade		incidence of Vomiting TRAE	26.3%
[Cl-].[Cl-].[Pt+2].[Ru+2].c1ccc(-c2nc3cc4ccccc4cc3nc2-c2ccccn2)nc1.c1cnc2c(c1)ccc1cccnc12.c1cnc2c(c1)ccc1cccnc12	Danio rerio		embryos	60 µM, 12 h		survival rate	90 ± 2.8%

For quick reference, copied from above:
Compound	tested on	test	system	conditions	how to read	quantity	value
CC(C)CC(=O)OC[C@H]1O[C@@](C#N)(c2ccc3c(N)ncnn23)[C@H](O)[C@@H]1O	ABCB1 (Homo sapiens, UniProt P08183)	basolateral to apical transport	Caco-2	90 µM, 2 h, added: verapamil 100 µM		recovery	90.8%
